Published values collected from several papers.
Lines come from different studies, so protocols differ. Numbers after ± are the reported error.

Compound	system	setting	Cmax [ng/mL]
CC(C)C[C@@H](NC(=O)[C@H](NC(=O)[C@H]1CCCN1)[C@H](C)O)C(=O)N[C@H](Cc1c[nH]cn1)C(=O)N[C@@H](C(=O)N[C@H](Cc1c[nH]cn1)C(=O)N[C@H](CC(N)=O)C(=O)N[C@H](CCCNC(=N)N)C(=O)N[C@H](CCCNC(=N)N)C(=O)N[C@H](CCCNC(=N)N)C(=O)N[C@H](CCCNC(=N)N)C(=O)N[C@H](CCCNC(=N)N)C(N)=O)[C@H](C)O	Beagle dog, CSF	oral, 50 mg/kg	21 ± 18
Cc1ncc2c(n1)CN(C(=O)Nc1nc(-c3cccs3)ccc1N)C2	male beagle dogs	oral, 45 mg/kg daily, day 14	6280 ± 1510
CCCC[C@H](NC(C)=O)C(=O)N[C@H]1CC(=O)NCCCC[C@@H](C(=O)N[C@@H](C(=O)N2CCC[C@@H]2C(N)=O)C(C)C)NC(=O)[C@H](Cc2c[nH]c3ccccc23)NC(=O)[C@H](CCCN=C(N)N)NC(=O)[C@@H](Cc2ccc3ccccc3c2)NC(=O)[C@@H]2CCCN2C1=O	dog, cachectic, plasma	subcutaneous, 0.75 mg/kg once daily, day 28, 1 h post-dose	1210 ± 200
CCCC[C@H](NC(C)=O)C(=O)N[C@H]1CC(=O)NCCCC[C@@H](C(=O)N[C@@H](C(=O)N2CCC[C@@H]2C(N)=O)C(C)C)NC(=O)[C@H](Cc2c[nH]c3ccccc23)NC(=O)[C@H](CCCN=C(N)N)NC(=O)[C@@H](Cc2ccc3ccccc3c2)NC(=O)[C@@H]2CCCN2C1=O	Beagle dog, both sexes, plasma	subcutaneous, once daily, 0.75 mg/kg, day 1	2600 ± 300
Cc1[nH]c(/C=C2\C(=O)Nc3ccc(F)cc32)c(C)c1NC(=O)CCN1CCN(C)CC1	Beagle dog, both sexes, plasma	oral, 3 mg/kg	50.9 ± 31.9
CC(=O)N[C@H](CC(=O)O)C(=O)N[C@H](Cc1c[nH]c2ccccc12)C(=O)N[C@H](Cc1ccccc1)C(=O)N[C@H](CCCCN)C(=O)N[C@H](C)C(=O)N[C@H](Cc1ccccc1)C(=O)N[C@H](Cc1ccc(O)cc1)C(=O)N[C@H](CC(=O)O)C(=O)N[C@H](CCCCN)C(=O)N[C@@H](C(=O)N[C@H](C)C(=O)N[C@H](CCC(=O)O)C(=O)N[C@H](CCCCN)C(=O)N[C@H](Cc1ccccc1)C(=O)N[C@H](CCCCN)C(=O)N[C@H](CCC(=O)O)C(=O)N[C@H](C)C(=O)N[C@H](Cc1ccccc1)C(N)=O)C(C)C	statin-treated high-risk CHD women, plasma	oral, 100 mg daily, day 13, 0 to 8 h, mean, detected subjects	3.37
CC1(C)CCC(CN2CCN(c3ccc(C(=O)NS(=O)(=O)c4ccc(NCC5COCCO5)c([N+](=O)[O-])c4)c(N4CCCOc5nc6[nH]ccc6cc54)c3)CC2)=C(c2ccc(Cl)cc2)C1 (stereo not shown)	male Beagle dogs, plasma	oral, 25 mg/kg	8000
Cc1ccc(OCC(=O)O)cc1	Sprague-Dawley rat, male, plasma	oral gavage, 10 mg/kg of parent drug	2560 ± 1240
CC(C)(O)c1ncc([S@](N)(=O)=NC(=O)Nc2c3c(cc4c2CCC4)CCC3)s1	healthy human	oral, 30 mg once daily, day 1, capsule formulation, geometric mean	2640
N=C(N)NCCC[C@@H]1NC(=O)[C@H](Cc2c[nH]c3ccccc23)NC(=O)[C@@H](CC2CCCCC2)NC(=O)[C@@H]2CCCN2C(=O)[C@@H](NC(=O)CCc2ccccc2)CCCNC1=O	C57BL/6J mouse, plasma	subcutaneous, 1 mg/kg, single dose	5620
